Experimental data from different studies.
Protocols differ between the studies behind these lines.
Cell line: KM12

| Compound | observed | technique | tested at | time | baseline | measurement | value |
| --- | --- | --- | --- | --- | --- | --- | --- |
| CC(=O)OC[C@H]1O[C@@H](Sc2sc(C(=O)c3ccc(C)cc3)c(N)c2-c2nc3ccccc3s2)[C@H](OC(C)=O)[C@@H](OC(C)=O)[C@@H]1OC(C)=O | – | SRB | 10 µM | 48 h | untreated | growth | 69% |
| COc1ccc(C2=Nn3c(NN=C4C(=O)N(C)c5ccc(Br)cc54)nnc3SC2)cc1 | cell growth or viability | SRB | 10 µM | – | – | inhibition | 18% |
| CC(=O)OC[C@H]1O[C@@H](Sc2sc(C(=O)c3ccc(Br)cc3)c(N)c2-c2nc3ccccc3s2)[C@H](OC(C)=O)[C@@H](OC(C)=O)[C@H]1OC(C)=O | – | SRB | 10 µM | 48 h | untreated | growth | 106% |
| COc1cc(CNC(=O)C[C@H](C)CCC=C(C)C)ccc1OCc1cn(-c2ccccc2)nn1 | – | SRB | 10 µM | 48 h | – | growth percent | 96% |
| CC(Cc1ccc(Cl)cc1)=C(c1ccc(Cl)cc1)c1ccc(OCCN(C)C)cc1 | cell growth or viability | SRB | – | – | – | GI50 | 4.16 µM |
| COc1cc(CNC(=O)C[C@H](C)CCC=C(C)C)ccc1OCc1cn(-c2ccccc2F)nn1 | – | SRB | 10 µM | 48 h | – | growth percent | 99.3% |
| CC(=C(c1ccc(O)cc1)c1ccc(Cl)cc1)c1ccc(Cl)cc1 | cell growth or viability | SRB | – | – | – | GI50 | 0.58 µM |
| COc1ccc2c(c1)/C(=N\Nc1nnc3n1N=C(c1ccccc1)CS3)C(=O)N2 | cell growth or viability | SRB | 10 µM | – | – | inhibition | 40% |
| COc1cc(CNC(=O)C[C@H](C)CCC=C(C)C)ccc1OCc1cn(-c2ccc(F)cc2)nn1 | – | SRB | 10 µM | 48 h | – | growth percent | 96.4% |
| CC/C=C\C/C=C\C/C=C\C/C=C\C/C=C\C/C=C\CCC(=O)Nc1ccn(C2OC(CO)C(O)C2(F)F)c(=O)n1 (stereo not shown) | – | NCI60 screen | – | – | – | TGI | 20.2 µM |
